Published values collected from several papers.
Each line is one published result; not all experiments were run side by side. Several values in a cell are separate wells, animals, samples, runs or records. ≈ marks a conversion by molar mass, not a printed value.
Organism: Staphylococcus aureus

Structure (SMILES)	test	system	setting	scale	measurement	result
C=CC[C@@H]1c2ccc(OC)c(OC)c2CN2CCc3cc4c(cc3[C@H]12)OCO4		P2rx7 A312V/A312V mice, skin wound infection	dose not given, day 7	relative to: day 0	relative wound size	1.23 and 0.87 and 0.75 and 1.02 and 0.6 and 0.69
CCCCCCCCCC(=O)N[C@@H](Cc1c[nH]c2ccccc12)C(=O)N[C@H](CC(N)=O)C(=O)N[C@@H](CC(=O)O)C(=O)N[C@@H]1C(=O)NCC(=O)N[C@@H](CCCN)C(=O)N[C@@H](CC(=O)O)C(=O)N[C@H](C)C(=O)N[C@@H](CC(=O)O)C(=O)NCC(=O)N[C@H](CO)C(=O)N[C@@H]([C@H](C)CC(=O)O)C(=O)N[C@@H](CC(=O)c2ccccc2N)C(=O)O[C@@H]1C	broth microdilution	BR-VRSA strain 880, Mueller-Hinton broth, Mg2+ 10 mg/L	16 h, with: Ca2+ 0 mM		MIC	> 128 mg/L
Cc1c2c(nn1C)CSCc1cc(n(C)n1)CSc1cc(c3ccccc3c1)OCCCc1c(C(=O)O)n(C)c3c-2c(Cl)ccc13	label-free quantitative proteomics, item: SAOUHSC_02629 protein	SA113	concentration not given	relative to: untreated control	log2 fold change	4.08
CC[C@H](C)[C@H](NC(=O)[C@H](CCCCN)NC(=O)[C@H](CCCCN)NC(=O)[C@H](Cc1ccccc1)NC(=O)[C@@H](NC(=O)[C@@H](NC(=O)[C@H](CCCNC(=N)N)NC(=O)[C@H](Cc1ccccc1)NC(=O)[C@@H](NC(=O)[C@H](CCCCN)NC(=O)[C@H](CCCCN)NC(=O)[C@@H](N)CCSC)[C@@H](C)CC)C(C)C)[C@@H](C)CC)C(=O)N[C@@H](CC(C)C)C(=O)N[C@@H](CCCCN)C(=O)N[C@@H](CCCNC(=N)N)C(=O)N[C@@H](CC(C)C)C(=O)N[C@H](C(=O)N[C@H](C(=O)O)C(C)C)[C@@H](C)CC	broth microdilution	ATCC 25923	20% fetal bovine serum		MIC	8 mg/L (≈ 3.52 µM)
CN[C@H](CC(C)C)C(=O)N[C@H]1C(=O)N[C@@H](CC(N)=O)C(=O)N[C@H]2C(=O)N[C@H]3C(=O)N[C@H](C(=O)N[C@H](C(=O)O)c4cc(O)cc(O)c4-c4cc3ccc4O)[C@H](O)c3ccc(c(Cl)c3)Oc3cc2cc(c3O[C@@H]2O[C@H](CO)[C@@H](O)[C@H](O)[C@H]2O[C@H]2C[C@](C)(N)[C@H](O)[C@H](C)O2)Oc2ccc(cc2Cl)[C@H]1O		MRSA strain 5			MIC	1 mg/L (≈ 0.69 µM)
CN[C@H](CC(C)C)C(=O)N[C@H]1C(=O)N[C@@H](CC(N)=O)C(=O)N[C@H]2C(=O)N[C@H]3C(=O)N[C@H](C(=O)N[C@H](C(=O)O)c4cc(O)cc(O)c4-c4cc3ccc4O)[C@H](O)c3ccc(c(Cl)c3)Oc3cc2cc(c3O[C@@H]2O[C@H](CO)[C@@H](O)[C@H](O)[C@H]2O[C@H]2C[C@](C)(N)[C@H](O)[C@H](C)O2)Oc2ccc(cc2Cl)[C@H]1O		CAAS-2019-CAAS-2019-13 clinical drug-resistant isolate, 25% plasma			MBC	8 mg/L (≈ 5.52 µM)
CC[C@H](C)[C@H](NC(=O)[C@H](C)NC(=O)[C@H](CCCCN)NC(=O)[C@H](CC(C)C)NC(=O)[C@H](C)NC(=O)[C@@H](NC(=O)[C@H](Cc1c[nH]cn1)NC(=O)[C@H](CC(C)C)NC(=O)[C@@H](NC(=O)[C@@H](NC(=O)[C@H](CCCCN)NC(=O)[C@H](C)NC(=O)[C@H](C)NC(=O)[C@H](CO)NC(=O)[C@H](CCCCN)NC(=O)[C@H](Cc1ccccc1)NC(=O)[C@@H](NC(=O)[C@H](CCCCN)NC(=O)[C@H](CC(C)C)NC(=O)[C@H](Cc1ccccc1)NC(=O)[C@H](CO)NC(=O)[C@H](CCCCN)NC(=O)[C@H](Cc1c[nH]c2ccccc12)NC(=O)[C@H](CCCCN)NC(C)=O)[C@@H](C)O)[C@@H](C)O)C(C)C)[C@@H](C)O)C(=O)N[C@@H](CO)C(=O)N[C@@H](CO)C(N)=O		MSSA	67 strains		MIC50	4 mg/L (≈ 1.36 µM)
CC(C)C[C@H](NC(=O)CNC(=O)CNC(=O)CNC(=O)[C@H](Cc1ccc(O)cc1)NC(=O)[C@H](CC(C)C)NC(=O)[C@@H](NC(=O)CNC(=O)[C@H](Cc1ccc(O)cc1)NC(=O)[C@H](CCCCN)NC(=O)[C@H](CC(N)=O)NC(=O)[C@@H](NC(=O)[C@H](CCCCN)NC(=O)[C@H](Cc1c[nH]c2ccccc12)NC(=O)CN)[C@@H](C)O)[C@@H](C)O)C(=O)N[C@@H](CCCCN)C(=O)N[C@@H](CCCCN)C(=O)N[C@@H](CC(C)C)C(=O)N[C@@H](CC(C)C)C(=O)N[C@@H](CC(C)C)C(=O)N[C@@H](CC(C)C)C(=O)N[C@@H](CC(C)C)C(=O)N[C@@H](CCCCN)C(=O)N[C@@H](CCCCN)C(=O)N[C@@H](CC(C)C)C(=O)NCC(=O)O		USA300	with: 2 mM CaCl2		MIC	32 mg/L (≈ 11.2 µM)
CC(=O)NC[C@H]1CN(c2ccc(N3CCOCC3)c(F)c2)C(=O)O1		MRSA strain 4, vancomycin-induced	20 generations		MIC	0.5 mg/L (≈ 1.48 µM)

Excerpt of the above:
Structure (SMILES)	test	system	setting	scale	measurement	result
Cc1c2c(nn1C)CSCc1cc(n(C)n1)CSc1cc(c3ccccc3c1)OCCCc1c(C(=O)O)n(C)c3c-2c(Cl)ccc13	label-free quantitative proteomics, item: SAOUHSC_02629 protein	SA113	concentration not given	relative to: untreated control	log2 fold change	4.08
